Experimental data pooled from the literature.
Numbered parts are unrelated; each lists some results of a single study.

Sample 1
Target: Prothrombin, mature alpha-thrombin (F2, Homo sapiens, UniProt P00734)
Technique: aptamer microarray, sandwich
Form: DNA with 2'F-ANA
Matrix: in vitro
Concentration: 200 nM
Notes: whole 15-mer aptamer, many near background
Added: Cy3 exosite-II aptamer, 400 nM
Direction: higher = stronger binding
| Strand | mean fluorescence intensity [a.u.] |
| --- | --- |
| GGTTGGTGTGGTTGG (2'F-ANA at 2 5 11 12 14) | 50.4 |
| GGTTGGTGTGGTTGG (2'F-ANA at 1 2 3 4 6 8 10 12 13) | 58.4 |
| GGTTGGTGTGGTTGG (2'F-ANA at 1 2 5 7 9 10 12 13 15) | 49.5 |

Sample 2
Target: Sal-like protein 4, full length isoform A (SALL4, Homo sapiens, UniProt Q9UJQ4, residues 1-1053)
Chain of UniProt Q9UJQ4 (whole entry, looked up): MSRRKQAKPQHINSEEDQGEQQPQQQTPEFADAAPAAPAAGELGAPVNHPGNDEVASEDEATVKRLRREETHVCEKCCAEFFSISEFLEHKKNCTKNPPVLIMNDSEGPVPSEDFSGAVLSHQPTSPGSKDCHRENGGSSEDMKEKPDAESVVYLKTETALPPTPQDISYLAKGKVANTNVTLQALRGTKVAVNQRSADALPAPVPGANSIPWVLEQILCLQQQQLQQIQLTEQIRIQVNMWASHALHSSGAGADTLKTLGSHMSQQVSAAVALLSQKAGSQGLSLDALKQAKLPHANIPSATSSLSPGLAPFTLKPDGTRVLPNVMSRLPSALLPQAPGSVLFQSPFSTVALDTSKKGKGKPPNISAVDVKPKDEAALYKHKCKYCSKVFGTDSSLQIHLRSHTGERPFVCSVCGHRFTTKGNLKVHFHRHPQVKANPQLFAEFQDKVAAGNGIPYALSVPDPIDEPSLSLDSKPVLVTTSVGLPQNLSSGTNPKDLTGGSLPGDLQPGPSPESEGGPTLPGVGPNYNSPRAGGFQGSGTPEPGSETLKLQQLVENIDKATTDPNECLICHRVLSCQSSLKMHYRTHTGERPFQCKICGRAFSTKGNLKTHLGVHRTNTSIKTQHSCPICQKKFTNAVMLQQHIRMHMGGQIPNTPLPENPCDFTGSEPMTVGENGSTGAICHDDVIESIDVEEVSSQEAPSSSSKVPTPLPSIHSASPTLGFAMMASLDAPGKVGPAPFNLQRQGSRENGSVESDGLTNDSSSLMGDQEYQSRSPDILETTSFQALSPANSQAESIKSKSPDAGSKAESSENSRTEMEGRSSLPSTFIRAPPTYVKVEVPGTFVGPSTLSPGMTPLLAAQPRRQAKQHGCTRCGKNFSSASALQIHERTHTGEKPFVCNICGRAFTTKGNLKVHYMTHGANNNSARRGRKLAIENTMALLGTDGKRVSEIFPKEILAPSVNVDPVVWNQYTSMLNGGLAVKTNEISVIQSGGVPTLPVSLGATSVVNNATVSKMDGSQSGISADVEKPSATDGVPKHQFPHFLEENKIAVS
Technique: universal PBM
Form: double-stranded DNA, one strand shown
Matrix: in vitro
Concentration: 600 nM
Notes: 8-mer, flanks averaged, mean of replicates
Direction: higher = stronger binding
| Strand | E-score |
| --- | --- |
| CTAAAATA | 0.324 |
| AGACCGTA | -0.0808 |
| ATGATAAA | 0.365 |

Sample 3
Target: Histone acetyltransferase KAT6A, both winged helices, GST fusion (KAT6A, Homo sapiens, UniProt Q92794, residues 1-181)
Technique: protein binding microarray
Form: double-stranded DNA, one strand shown
Matrix: in vitro
Concentration: not given
Notes: 8-mer, flanks averaged, mean of 2 arrays, mostly near background
Reference: not given
Direction: higher = stronger binding
Target sequence (chain): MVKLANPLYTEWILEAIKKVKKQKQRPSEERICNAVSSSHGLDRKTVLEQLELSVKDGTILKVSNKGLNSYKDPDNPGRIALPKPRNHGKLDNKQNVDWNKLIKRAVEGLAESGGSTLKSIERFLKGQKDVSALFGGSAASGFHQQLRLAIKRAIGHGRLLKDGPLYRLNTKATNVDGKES
| Strand | E-score |
| --- | --- |
| ATAGTACG | 0.0883 |
| GGAAGGGA | -0.0655 |
| AATCAGAA | -0.151 |
| GGCGATCA | 0.127 |

Mixed results
| Substance | target | assay | test system | conditions | scale | quantity | value |
| --- | --- | --- | --- | --- | --- | --- | --- |
| PhoQ, residues 284 288 289 292 302 303 NLALSC | PhoP, residues 12 14 15 18 19 NQAHL (Escherichia coli, UniProt P23836) | Sort-seq, item: YFP reporter | E. coli | PhoQ-PhoP variant library, added: 10 µM Mg2+ | reference: high Mg2+ state, higher = stronger signaling | fold induction | 3.69 |

Excerpt of the above (sample 3):
| Strand | E-score |
| --- | --- |
| ATAGTACG | 0.0883 |
